Measured values of several laboratories.
Compare with care: the assays were run in different laboratories.
Organism: Staphylococcus epidermidis

Oc1c(Br)cc(Br)c2nc3cc(SC(F)(F)F)ccc3nc12
MIC (broth microdilution; MRSE 35984): 0.1 µM

CCCCCCCCCCCC[S+]([O-])CC1OC(OC2C(N)CC(N)C(OC3OC(CN)C(O)CC3N)C2O)C(O)C(N)C1O (mixture of isomers)
MIC: 4.7 µg/mL

CCCCN(CCCC)CC(O)COc1c2ccoc2c(OC)c2oc(CC)cc(=O)c12 (stereo not shown)
MIC (broth microdilution; ATCC 35984; 19 h, 35 °C): 128 µg/mL

Oc1c(Br)cc(Br)c2nc3cc(I)ccc3nc12
MIC (microbial growth, broth dilution; 12228): 0.08 µM

O=C(O)CN1C(=O)/C(=C/c2ccc(-c3ccc(N(c4ccccc4)c4ccccc4)cc3)cc2)NC1=S
MBC/MIC ratio (broth microdilution; ATCC 12228): 2

C[C@H]1COc2c(N3CCN(C)CC3)c(F)cc3c(=O)c(C(=O)N[C@@H](CCCNC(=N)N)C(=O)N[C@@H](Cc4ccc(-c5ccccc5)cc4)C(=O)N[C@@H](CCCNC(=N)N)C(=O)N[C@@H](Cc4ccc(-c5ccccc5)cc4)C(=O)N[C@@H](CCCNC(=N)N)C(N)=O)cn1c23
fold MIC improvement (broth microdilution; ATCC 700565; baseline: MIC of unconjugated components): 2.5 fold

Cc1cc(/C=C2\Sc3ccccc3N2CCCN2CCCC2)c2ccccc2[n+]1C
MIC (microbial growth, broth dilution; ATCC12228): 4 µg/mL

Oc1c(Br)c(Cl)c(Br)c2nc3c(C(F)(F)F)cc(C(F)(F)F)cc3nc12
MIC (broth microdilution; MRSE 35984): 0.2 µM

CC1CCN(CCCN2/C(=C/c3cc(/C=C/c4c[nH]c5ccccc45)[n+](C)c4ccccc34)Sc3ccccc32)CC1
MIC (microbial growth, broth dilution; ATCC12228): 16 µg/mL

Oc1c(Br)ccc2cccnc12
MIC (microbial growth, agar dilution; ATCC12228): 35.7 µM

A few entries again:
CCCCCCCCCCCC[S+]([O-])CC1OC(OC2C(N)CC(N)C(OC3OC(CN)C(O)CC3N)C2O)C(O)C(N)C1O (mixture of isomers)
MIC: 4.7 µg/mL
